Published values from different studies.
A part holds a random share of what one study measured. Changes are numbered by the printed parent chain.

Set 1
Target: UDP-N-acetylglucosamine--peptide N-acetylglucosaminyltransferase 110 kDa subunit (OGT, Homo sapiens, UniProt O15294)
Chain of UniProt O15294 (whole entry, looked up): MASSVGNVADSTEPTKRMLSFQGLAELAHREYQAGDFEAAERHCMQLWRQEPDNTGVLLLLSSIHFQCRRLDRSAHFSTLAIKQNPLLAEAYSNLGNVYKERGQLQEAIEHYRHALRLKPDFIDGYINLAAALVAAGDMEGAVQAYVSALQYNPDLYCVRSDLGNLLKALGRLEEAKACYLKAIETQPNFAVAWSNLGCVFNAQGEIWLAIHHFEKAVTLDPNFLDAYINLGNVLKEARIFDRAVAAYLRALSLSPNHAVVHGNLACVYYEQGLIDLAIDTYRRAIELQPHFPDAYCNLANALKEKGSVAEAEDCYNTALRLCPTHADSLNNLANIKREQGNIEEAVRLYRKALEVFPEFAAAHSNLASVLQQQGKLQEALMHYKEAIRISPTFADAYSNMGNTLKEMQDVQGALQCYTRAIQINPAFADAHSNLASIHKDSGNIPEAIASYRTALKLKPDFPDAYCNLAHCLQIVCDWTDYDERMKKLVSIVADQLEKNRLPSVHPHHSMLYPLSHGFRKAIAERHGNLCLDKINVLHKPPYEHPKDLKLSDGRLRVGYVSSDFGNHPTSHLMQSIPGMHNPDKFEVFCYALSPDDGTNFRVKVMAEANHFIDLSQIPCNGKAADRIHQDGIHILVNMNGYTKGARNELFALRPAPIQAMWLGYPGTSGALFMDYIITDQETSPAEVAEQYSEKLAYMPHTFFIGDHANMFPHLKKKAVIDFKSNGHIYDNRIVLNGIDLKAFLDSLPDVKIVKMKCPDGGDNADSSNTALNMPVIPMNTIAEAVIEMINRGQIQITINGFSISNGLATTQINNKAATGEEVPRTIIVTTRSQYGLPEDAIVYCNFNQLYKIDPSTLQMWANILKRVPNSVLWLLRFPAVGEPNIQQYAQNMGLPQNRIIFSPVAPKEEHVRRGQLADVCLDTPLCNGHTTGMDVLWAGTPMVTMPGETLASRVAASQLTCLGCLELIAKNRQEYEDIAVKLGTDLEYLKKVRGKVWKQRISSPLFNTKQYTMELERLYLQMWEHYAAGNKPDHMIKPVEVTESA
Observed: binding
Technique: phage display NGS
Form: peptide
Setting: panning round 2
Baseline: input library
`SHMESHANNHHRAHW`: “minimum log2 enrichment ratio” 2.33.
For `HPVYHQVDTIQPHHH`, “minimum log2 enrichment ratio” read 2.29.
`EEQEHPFTPHYQIII`: “minimum log2 enrichment ratio” 4.35.
`HWHLHDSLYHQVDIH`: “minimum log2 enrichment ratio” 3.17.
`THWSHYDTEHVDYTH` — result for “minimum log2 enrichment ratio”: 1.67.
`VRQHHHQNAGWHMYH`: “minimum log2 enrichment ratio” 2.64.
`HQIPVLLHHSHTRNI` — result for “minimum log2 enrichment ratio”: 2.62.
For `RFMPVYQMNVPEIDV`, “minimum log2 enrichment ratio” read 3.33.
Under “minimum log2 enrichment ratio”, `INPPWHHVHRHHSWA` is recorded as 2.27.
`HIQEMHWHQINHEFT`: “minimum log2 enrichment ratio” 1.53.
`EQHFPPAYLITYKSR` — result for “minimum log2 enrichment ratio”: 4.01.
`QDFKPMYQIKIRSHA` — result for “minimum log2 enrichment ratio”: 7.09.
`QSMGFSYPPAYLIKY` — result for “minimum log2 enrichment ratio”: 2.26.

Set 2
Target: TATA-box-binding protein 1 (TBP1, Arabidopsis thaliana, UniProt P28147, residues 1-200, full length assumed)
Technique: protein-binding microarray
Form: double-stranded DNA, one strand shown
Sample: in vitro
Tested at: not given
Setting: k-mer, scored over probes, only values ≥0.25
Direction: higher = stronger binding
Residues (chain): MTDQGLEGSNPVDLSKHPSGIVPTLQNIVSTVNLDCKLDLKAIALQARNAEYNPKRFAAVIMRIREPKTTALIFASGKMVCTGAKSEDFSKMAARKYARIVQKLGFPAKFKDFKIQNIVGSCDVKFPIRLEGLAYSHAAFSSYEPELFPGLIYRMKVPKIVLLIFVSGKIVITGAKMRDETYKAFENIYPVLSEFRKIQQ
`ACTTTAT` gave an E-score of 0.366.
`AAAAGAT` gave an E-score of 0.295.
The E-score of `AAAAAAC` is reported as 0.251.
With `ATATGGG` the E-score was 0.283.
`ATAATGC` gave an E-score of 0.25.
`ATTAAAC` has an E-score of 0.312.
`GAATTAA` has an E-score of 0.277.
The E-score of `TATACAA` is reported as 0.258.

Set 3
Target: CRIPT, C-terminal peptide
Technique: DHFR complementation, deep sequencing
Sample: yeast
Setting: single substitutions, model-inferred values
Baseline: wild type
Direction: higher = weaker binding
Starting sequence: ERBIN, PDZ domain 1 (human); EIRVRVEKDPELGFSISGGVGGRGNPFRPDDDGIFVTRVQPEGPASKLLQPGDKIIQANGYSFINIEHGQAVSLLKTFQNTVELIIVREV; partner TKNYKQTSV
`D32L` — result for “binding free energy change”: 0.358 kcal/mol.
Under “binding free energy change”, `D31W` is recorded as 0.985 kcal/mol.
`S73T` — result for “binding free energy change”: -0.051 kcal/mol.
Under “binding free energy change”, `V20T` is recorded as -0.0273 kcal/mol.
Under “binding free energy change”, `G60W` is recorded as 0.101 kcal/mol.
`I86Y`: “binding free energy change” 0.216 kcal/mol.
Under “binding free energy change”, `R5E` is recorded as -0.0224 kcal/mol.
For `R23D`, “binding free energy change” read -2.27 kcal/mol.

Set 4
Target: Sox-I, HMG box (Salpingoeca helianthica)
Technique: Spec-seq
Form: double-stranded DNA, one strand shown
Sample: in vitro
Tested at: not given
Setting: whole probe, mean of replicates
Baseline: not given
Direction: lower = stronger binding
All sequences stand within: GAGTCGTCTCGTCAGCAC … CCGTAGAGCACTCAGGTC
Construct (chain): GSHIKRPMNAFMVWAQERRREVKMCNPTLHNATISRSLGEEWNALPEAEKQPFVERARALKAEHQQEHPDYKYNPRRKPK
For `CATTACA`, “relative binding energy” read 0.391 ln ratio.
Under “relative binding energy”, `CATCTCT` is recorded as 0.685 ln ratio.
`CATATGC` — result for “relative binding energy”: 0.946 ln ratio.
Under “relative binding energy”, `CATGGGT` is recorded as 1.05 ln ratio.
For `GATGGTT`, “relative binding energy” read 1.04 ln ratio.
`GAGCGTT`: “relative binding energy” 1.01 ln ratio.
For `CATGCGC`, “relative binding energy” read 1.2 ln ratio.
`AACCGTT`: “relative binding energy” -0.328 ln ratio.

Repeated from above (set 2):
With `ATATGGG` the E-score was 0.283.
`ATAATGC` gave an E-score of 0.25.
`ATTAAAC` has an E-score of 0.312.
